Experimental data of several laboratories.
Each line is one published result; not all experiments were run side by side. ± marks the error that the study gave.
Sequence of UniProt Q13671 (whole entry, looked up): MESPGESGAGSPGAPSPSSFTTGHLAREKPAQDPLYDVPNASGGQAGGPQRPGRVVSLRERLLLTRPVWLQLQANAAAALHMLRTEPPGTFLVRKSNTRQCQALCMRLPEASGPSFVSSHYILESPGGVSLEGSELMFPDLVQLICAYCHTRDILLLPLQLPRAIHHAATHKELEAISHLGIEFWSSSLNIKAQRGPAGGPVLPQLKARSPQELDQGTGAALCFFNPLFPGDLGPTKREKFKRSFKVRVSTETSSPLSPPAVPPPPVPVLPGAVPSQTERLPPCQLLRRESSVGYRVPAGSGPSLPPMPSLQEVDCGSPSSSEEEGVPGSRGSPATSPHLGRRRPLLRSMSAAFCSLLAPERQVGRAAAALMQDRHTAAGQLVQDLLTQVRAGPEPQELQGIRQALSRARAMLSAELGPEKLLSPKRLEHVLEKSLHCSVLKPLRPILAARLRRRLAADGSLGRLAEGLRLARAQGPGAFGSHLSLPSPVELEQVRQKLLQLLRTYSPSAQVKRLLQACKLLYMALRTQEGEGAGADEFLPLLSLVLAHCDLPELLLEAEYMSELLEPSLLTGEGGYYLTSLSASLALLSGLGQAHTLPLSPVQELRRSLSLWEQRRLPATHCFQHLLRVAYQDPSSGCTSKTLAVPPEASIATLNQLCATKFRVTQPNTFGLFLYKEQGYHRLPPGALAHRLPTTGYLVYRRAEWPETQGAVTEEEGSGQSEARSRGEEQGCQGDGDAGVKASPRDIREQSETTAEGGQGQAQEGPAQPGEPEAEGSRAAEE
Sequence of UniProt Q14451 (whole entry, looked up): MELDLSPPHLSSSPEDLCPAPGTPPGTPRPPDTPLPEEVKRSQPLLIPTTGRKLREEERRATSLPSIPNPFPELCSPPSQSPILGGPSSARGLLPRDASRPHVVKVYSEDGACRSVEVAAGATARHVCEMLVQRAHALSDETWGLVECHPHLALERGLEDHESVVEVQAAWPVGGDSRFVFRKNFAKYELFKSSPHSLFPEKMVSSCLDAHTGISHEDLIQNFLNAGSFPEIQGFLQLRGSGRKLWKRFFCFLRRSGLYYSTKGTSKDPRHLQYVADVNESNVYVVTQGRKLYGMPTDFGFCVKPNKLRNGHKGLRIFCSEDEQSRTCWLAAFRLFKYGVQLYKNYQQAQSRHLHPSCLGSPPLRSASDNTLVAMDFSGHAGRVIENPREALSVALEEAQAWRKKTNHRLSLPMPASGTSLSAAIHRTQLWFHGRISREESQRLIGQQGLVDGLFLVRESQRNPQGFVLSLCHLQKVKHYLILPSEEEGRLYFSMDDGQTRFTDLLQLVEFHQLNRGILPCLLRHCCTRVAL
Sequence of UniProt Q15464 (whole entry, looked up): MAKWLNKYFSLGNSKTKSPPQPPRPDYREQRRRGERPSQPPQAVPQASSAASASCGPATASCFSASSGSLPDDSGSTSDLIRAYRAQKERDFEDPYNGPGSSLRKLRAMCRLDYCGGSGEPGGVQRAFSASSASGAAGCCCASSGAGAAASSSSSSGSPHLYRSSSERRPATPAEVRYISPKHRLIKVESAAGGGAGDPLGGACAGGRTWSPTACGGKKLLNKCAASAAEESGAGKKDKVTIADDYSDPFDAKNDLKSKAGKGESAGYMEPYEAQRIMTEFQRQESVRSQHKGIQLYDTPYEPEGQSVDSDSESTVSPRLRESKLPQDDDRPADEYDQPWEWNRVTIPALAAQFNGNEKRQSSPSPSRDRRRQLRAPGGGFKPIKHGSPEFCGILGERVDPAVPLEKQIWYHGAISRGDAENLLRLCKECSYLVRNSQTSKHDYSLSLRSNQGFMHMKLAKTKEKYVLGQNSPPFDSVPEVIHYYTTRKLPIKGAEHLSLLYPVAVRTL
Sequence of UniProt Q96RI1 (whole entry, looked up): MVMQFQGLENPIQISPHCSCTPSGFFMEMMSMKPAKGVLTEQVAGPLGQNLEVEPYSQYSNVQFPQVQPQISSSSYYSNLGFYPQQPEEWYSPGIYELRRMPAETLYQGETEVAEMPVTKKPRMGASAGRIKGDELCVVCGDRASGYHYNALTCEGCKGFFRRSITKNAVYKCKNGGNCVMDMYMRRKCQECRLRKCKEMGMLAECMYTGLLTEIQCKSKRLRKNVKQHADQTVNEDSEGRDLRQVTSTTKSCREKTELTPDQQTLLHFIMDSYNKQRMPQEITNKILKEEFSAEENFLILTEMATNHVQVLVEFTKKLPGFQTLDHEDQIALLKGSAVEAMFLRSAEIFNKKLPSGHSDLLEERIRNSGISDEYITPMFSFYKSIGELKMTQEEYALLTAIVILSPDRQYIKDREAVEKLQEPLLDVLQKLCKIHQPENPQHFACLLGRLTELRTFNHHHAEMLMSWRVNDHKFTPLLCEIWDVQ
Sequence of UniProt P51531 (whole entry, looked up): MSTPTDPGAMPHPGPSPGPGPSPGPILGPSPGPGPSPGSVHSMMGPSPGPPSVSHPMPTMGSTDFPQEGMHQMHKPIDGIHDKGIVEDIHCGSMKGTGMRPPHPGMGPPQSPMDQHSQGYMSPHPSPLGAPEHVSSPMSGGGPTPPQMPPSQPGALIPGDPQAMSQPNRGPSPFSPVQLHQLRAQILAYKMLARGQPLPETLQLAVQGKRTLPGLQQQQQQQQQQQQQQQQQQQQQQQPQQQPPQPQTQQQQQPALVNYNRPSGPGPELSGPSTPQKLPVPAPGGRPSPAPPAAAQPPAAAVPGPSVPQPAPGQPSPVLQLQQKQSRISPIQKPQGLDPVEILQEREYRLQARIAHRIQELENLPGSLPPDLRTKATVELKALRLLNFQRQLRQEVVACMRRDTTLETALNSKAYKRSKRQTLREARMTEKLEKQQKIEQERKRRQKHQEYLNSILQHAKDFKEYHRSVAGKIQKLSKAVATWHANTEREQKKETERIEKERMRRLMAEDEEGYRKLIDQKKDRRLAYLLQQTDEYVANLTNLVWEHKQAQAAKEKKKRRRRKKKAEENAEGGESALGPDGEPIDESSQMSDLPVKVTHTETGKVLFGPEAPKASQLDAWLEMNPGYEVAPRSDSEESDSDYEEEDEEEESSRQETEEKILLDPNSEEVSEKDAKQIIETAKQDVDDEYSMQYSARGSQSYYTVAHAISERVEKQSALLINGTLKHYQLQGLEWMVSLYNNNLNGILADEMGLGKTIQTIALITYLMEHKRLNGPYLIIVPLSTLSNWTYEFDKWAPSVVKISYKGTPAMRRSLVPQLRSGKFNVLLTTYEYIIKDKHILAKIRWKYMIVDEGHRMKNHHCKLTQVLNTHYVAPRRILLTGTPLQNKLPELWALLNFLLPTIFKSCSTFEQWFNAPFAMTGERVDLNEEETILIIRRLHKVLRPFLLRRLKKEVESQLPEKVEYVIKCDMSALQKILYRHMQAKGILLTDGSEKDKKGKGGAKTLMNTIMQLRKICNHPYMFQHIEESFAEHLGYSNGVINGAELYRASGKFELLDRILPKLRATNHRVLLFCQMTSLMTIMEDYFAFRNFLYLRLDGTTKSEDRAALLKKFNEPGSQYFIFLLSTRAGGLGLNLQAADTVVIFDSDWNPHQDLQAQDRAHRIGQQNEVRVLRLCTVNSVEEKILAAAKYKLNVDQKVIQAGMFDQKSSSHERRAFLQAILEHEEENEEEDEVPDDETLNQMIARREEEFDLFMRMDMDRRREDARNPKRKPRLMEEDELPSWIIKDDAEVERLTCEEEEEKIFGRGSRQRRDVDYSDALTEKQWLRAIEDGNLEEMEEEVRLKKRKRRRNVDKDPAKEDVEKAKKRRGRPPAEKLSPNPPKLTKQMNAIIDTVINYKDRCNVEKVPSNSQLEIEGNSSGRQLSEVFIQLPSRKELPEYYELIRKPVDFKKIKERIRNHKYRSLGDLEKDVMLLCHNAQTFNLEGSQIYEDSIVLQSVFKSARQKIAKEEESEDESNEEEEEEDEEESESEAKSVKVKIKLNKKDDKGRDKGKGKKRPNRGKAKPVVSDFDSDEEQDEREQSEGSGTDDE
Sequence of UniProt P41143 (whole entry, looked up): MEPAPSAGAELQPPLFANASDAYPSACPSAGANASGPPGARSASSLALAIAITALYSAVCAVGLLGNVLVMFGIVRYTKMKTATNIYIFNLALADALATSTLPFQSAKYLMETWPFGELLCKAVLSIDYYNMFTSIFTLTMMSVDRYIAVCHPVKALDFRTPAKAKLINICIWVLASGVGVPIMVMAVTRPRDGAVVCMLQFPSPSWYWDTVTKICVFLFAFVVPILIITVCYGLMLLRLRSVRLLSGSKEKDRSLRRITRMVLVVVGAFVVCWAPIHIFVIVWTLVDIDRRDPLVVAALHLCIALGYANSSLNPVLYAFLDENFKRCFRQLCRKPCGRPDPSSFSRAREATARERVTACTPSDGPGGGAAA
Sequence of UniProt Q96LB2 (whole entry, looked up): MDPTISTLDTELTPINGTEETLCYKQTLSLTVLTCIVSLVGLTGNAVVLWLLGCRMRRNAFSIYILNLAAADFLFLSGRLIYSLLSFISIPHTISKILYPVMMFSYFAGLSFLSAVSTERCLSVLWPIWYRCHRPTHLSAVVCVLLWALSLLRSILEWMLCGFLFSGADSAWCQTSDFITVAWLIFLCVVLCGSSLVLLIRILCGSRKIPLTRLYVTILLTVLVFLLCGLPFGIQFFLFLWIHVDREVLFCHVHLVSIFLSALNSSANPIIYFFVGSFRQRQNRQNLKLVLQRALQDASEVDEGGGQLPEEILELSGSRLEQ

| Structure (SMILES) | target or system | assay | system | conditions | how to read | measurement | value |
| --- | --- | --- | --- | --- | --- | --- | --- |
| COc1cc(CCC[P+](c2ccccc2)(c2ccccc2)c2ccccc2)c(OC)c2c1OCO2.[I-] | SNB-19 | SRB |  |  |  | TGI | -4.96 log M |
| COc1ccc(N2C(=O)N(c3c(C)cccc3Cl)Cc3cnc(Nc4ccc(C5CCN(C)CC5)cc4OC)nc32)nc1 | TNIK (Homo sapiens, UniProt Q9UKE5) | kinase activity |  | 0.5 µM |  | inhibition | 24% |
| CO[C@H]1C[C@H](O[C@@H]2/C(C)=C/C[C@@H]3C[C@@H](C[C@]4(CC[C@H](C)[C@@H](C5CCCCC5)O4)O3)OC(=O)[C@@H]3C=C(C)/C(=N/O)[C@H]4OC/C(=C\C=C\[C@@H]2C)[C@]43O)O[C@@H](C)[C@@H]1O | Bile acid receptor (NR1H4, Homo sapiens, UniProt Q96RI1) | receptor activity, inhibitor | cells |  |  | IC50 | 3330 ± 730 nM |
| NC(=O)C1=CN([C@@H]2O[C@H](COP(=O)(O)OP(=O)(O)OC[C@H]3O[C@@H](n4cnc5c(N)ncnc54)[C@H](O)[C@@H]3O)[C@@H](O)[C@H]2O)C=CC1 | NADH-dependent FAD reductase (sgcE6, Streptomyces globisporus, UniProt Q8GME2) | substrate |  |  |  | Km | 53 ± 8 µM |
| CC[C@H](C)[C@@H]1NC(=O)[C@@H]2CCCN2C(=O)[C@H](CC(C)C)NC(=O)[C@H](CC(C)C)NC(=O)CNC(=O)[C@@H](NC(=O)[C@@H](NC(=O)[C@H](CC(=O)O)NC(=O)CNC(=O)[C@@H](NC(=O)[C@H](C)NC(=O)CNC(=O)[C@H](CCCCN)NC(=O)[C@H](CC(C)C)NC(=O)[C@H](CC(C)C)NC(=O)[C@H](CCCCN)NC(=O)CNC(=O)[C@@H](NC(=O)[C@@H](N)CC(C)C)C(C)C)C(C)C)C(C)C)CSSC[C@@H](C(=O)O)NC1=O |  | RNA-seq, measured: Il10 | mouse, traumatic brain injury model, frontal cortex and hippocampus | dose not given | baseline: TBI alone | log2 fold change | -6.86 |
| CC[C@H](C)[C@H](NC(=O)[C@H](Cc1ccccc1)NC(=O)[C@H](CCC(=O)O)NC(=O)[C@H](CCCNC(=N)N)NC(=O)[C@H](C)NC(=O)[C@H](C)NC(=O)[C@H](CCC(N)=O)NC(=O)[C@H](CCC(=O)O)NC(=O)[C@H](CCC(=O)O)NC(=O)[C@H](CC(C)C)NC(=O)[C@H](Cc1ccc(O)cc1)NC(=O)[C@H](CO)NC(=O)[C@H](CO)NC(=O)[C@@H](NC(=O)[C@H](CC(=O)O)NC(=O)[C@H](CO)NC(=O)[C@@H](NC(=O)[C@H](Cc1ccccc1)NC(=O)[C@@H](NC(=O)CNC(=O)[C@H](CCC(=O)O)NC(=O)[C@H](C)NC(=O)CCc1c[nH]cn1)[C@@H](C)O)[C@@H](C)O)C(C)C)C(=O)N[C@@H](C)C(=O)N[C@@H](Cc1c[nH]c2ccccc12)C(=O)N[C@@H](CC(C)C)C(=O)N[C@H](C(=O)N[C@@H](CCCNC(=N)N)C(=O)NCC(=O)N[C@@H](CCCNC(=N)N)C(=O)N[C@@H](CCCCNC(=O)COCCOCCNC(=O)COCCOCCNC(=O)CC[C@H](NC(=O)CCCCCCCCCCCCCCCCC(=O)O)C(=O)O)C(=O)NCC(=O)NCC(=O)N[C@@H](CO)C(=O)N[C@@H](CCCCNc1c(NCCCCCN(O)C(=O)CCC(=O)NCCCCCN(O)C(=O)CCC(=O)NCCCCCN(O)C(C)=O)c(=O)c1=O)C(=O)O)C(C)C [zirconium-89 labelled] |  | ex vivo gamma counting | rat, stomach | subcutaneous, 3 nmol/kg, 72 h, together with: [89Zr]-labelled peptide |  | tissue uptake | 0.15 %ID/g |
| CN1CCN(c2cc(-c3ccncc3)c(-c3ccc4ccccc4c3)nn2)CC1 | MRGPRX1 (Homo sapiens, UniProt Q96LB2) | antagonist, FLIPR |  | 10 µM |  | inhibition | 26.1% |
| C[C@H]1CN(c2n[nH]c3nc(N[C@H]4CC[C@H](NS(=O)(=O)CCC(F)(F)F)CC4)ncc23)CCO1 | Exportin-2 (Homo sapiens, UniProt P55060) | biochemical |  |  |  | IC50 | ≥ 20000 nM |
| COc1cc(Nc2ncc(F)c(Nc3ccc4c(n3)NC(=O)C(C)(C)O4)n2)cc(OC)c1OC | OPRD1 (Homo sapiens, UniProt P41143) |  |  |  |  | IC50 | > 10000 nM |
| CSCC[C@H](NC(=O)[C@H](CC(=O)O)NC(=O)c1ccc2c(c1)C(=O)OC21c2ccc(N(C)C)cc2Oc2cc(N(C)C)ccc21)C(=O)N[C@@H](CO)C(=O)N[C@@H](CCCCN)C(=O)N[C@@H](CC(=O)O)C(=O)N[C@@H](CCC(=O)O)C(=O)N[C@@H](CO)C(=O)N[C@H](C(=O)N[C@@H](CC(=O)O)C(=O)N[C@@H](Cc1ccc(OP(=O)(O)O)cc1)C(=O)N[C@H](C(=O)N1CCC[C@H]1C(=O)N[C@@H](CCSC)C(=O)N[C@@H](CC(C)C)C(=O)N[C@@H](CC(=O)O)C(=O)N[C@@H](CCSC)C(=O)N[C@@H](CCCCN)C(=O)N[C@@H](CC(=O)O)C(=O)O)C(C)C)C(C)C | SH2 domain-containing adapter protein B, SH2 domain (SHB, Homo sapiens, UniProt Q15464) | binding |  |  |  | Kd | 201 nM |
| CC[C@H](C)[C@H](NC(=O)[C@H](CO)NC(=O)[C@H](C)NC(=O)[C@H](Cc1ccc(OP(=O)(O)O)cc1)NC(=O)[C@H](CCC(=O)O)NC(=O)[C@@H](NC(=O)[C@H](Cc1c[nH]cn1)NC(=O)[C@H](CC(N)=O)NC(=O)[C@H](CC(N)=O)NC(=O)[C@@H]1CCCN1C(=O)[C@H](CCC(=O)O)NC(=O)[C@H](C)NC(=O)[C@H](C)NC(=O)[C@H](CCC(N)=O)NC(=O)[C@@H]1CCCN1C(=O)[C@H](C)NC(=O)[C@@H]1CCCN1C(=O)[C@H](CCCCN)NC(=O)[C@H](CCCCN)NC(=O)CNC(=O)[C@H](CCCCN)NC(=O)[C@@H]1CCCN1C(=O)[C@H](CC(C)C)NC(=O)[C@H](CC(N)=O)NC(=O)[C@H](CC(C)C)NC(=O)[C@H](CC(=O)O)NC(=O)[C@H](C)NC(=O)[C@H](Cc1ccc(OP(=O)(O)O)cc1)NC(=O)[C@@H](NC(=O)[C@@H](NC(=O)[C@@H](N)CC(=O)O)[C@@H](C)CC)[C@@H](C)O)[C@@H](C)O)C(=O)N[C@@H](CCC(N)=O)C(=O)N[C@H](C(=O)N[C@@H](CO)C(=O)O)[C@@H](C)O | PTPN11 (Homo sapiens, UniProt Q06124, E249R) | enzyme activity, activator |  | pH 7.0, 0.2% DMSO, together with: DiFMUP 100 µM, phosphopeptide |  | EC50 | 216 ± 2 nM |
| CC[C@H](C)[C@H](NC(=O)[C@H](Cc1ccc(OP(=O)(O)O)cc1)NC(=O)[C@H](CCC(=O)O)NC(=O)[C@H](Cc1c[nH]cn1)NC(=O)CNC(=O)[C@H](CC(=O)O)NC(=O)[C@H](CO)NC(=O)[C@H](CO)NC(=O)[C@@H](NC(=O)[C@H](CO)NC(=O)[C@H](CCC(=O)O)NC(=O)c1ccc2c(c1)C(=O)OC21c2ccc(N(C)C)cc2Oc2cc(N(C)C)ccc21)C(C)C)C(=O)N[C@@H](Cc1ccc(O)cc1)C(=O)N[C@H](C(=O)N[C@@H](CC(=O)O)C(=O)N1CCC[C@H]1C(=O)N[C@@H](CCSC)C(=O)N[C@@H](CCC(N)=O)C(=O)N[C@@H](CC(=O)O)C(=O)O)C(C)C | Growth factor receptor-bound protein 7, SH2 domain (GRB7, Homo sapiens, UniProt Q14451) | binding |  |  |  | Kd | 1260 nM |
| Nc1ccn([C@H]2C[C@H](O)[C@@H](COP(=O)(O)OP(=O)(O)OP(=O)(O)O)O2)c(=O)n1 | DNA polymerase I, Klenow fragment (polA, Escherichia coli, UniProt P00582, C907S/D424A/L744C/Y766A) | substrate, single-turnover chemical quench |  | together with: dNTP |  | Kd | 8200 nM |
| CC(C)C[C@H](NC(=O)[C@@H](NC(=O)[C@H](CO)NC(=O)[C@H](CO)NC(=O)[C@@H](NC(=O)[C@H](CC(=O)O)NC(=O)[C@H](CC(C)C)NC(=O)[C@@H]1CCCN1C(=O)[C@H](CO)NC(=O)c1ccc2c(c1)C(=O)OC21c2ccc(N(C)C)cc2Oc2cc(N(C)C)ccc21)[C@@H](C)O)C(C)C)C(=O)N[C@@H](Cc1ccc(OP(=O)(O)O)cc1)C(=O)N[C@H](C(=O)N[C@@H](C)C(=O)N[C@H](C(=O)N[C@@H](CCC(N)=O)C(=O)N1CCC[C@H]1C(=O)N[C@@H](CC(N)=O)C(=O)N[C@@H](CCC(=O)O)C(=O)N[C@@H](CC(=O)O)C(=O)O)C(C)C)[C@@H](C)O | Ras and Rab interactor 1, SH2 domain (RIN1, Homo sapiens, UniProt Q13671) | binding |  |  |  | Kd | 974 nM |
| Cc1ncsc1-c1ccc(CNC(=O)[C@@H]2C[C@@H](O)CN2C(=O)[C@@H](NC(=O)C2(F)CC2)C(C)(C)C)c(OCCOc2ccc(CN3CCN(c4cc(-c5ccccc5O)nnc4N)CC3)cc2)c1 | SMARCA2 (Homo sapiens, UniProt P51531) | degrader, immunoblot | SMARCA4 wild-type cells | 96 h, median of twelve cell lines |  | DC50 | 11.1 nM |

Some of these lines once more:
| Structure (SMILES) | target or system | assay | system | conditions | how to read | measurement | value |
| --- | --- | --- | --- | --- | --- | --- | --- |
| CO[C@H]1C[C@H](O[C@@H]2/C(C)=C/C[C@@H]3C[C@@H](C[C@]4(CC[C@H](C)[C@@H](C5CCCCC5)O4)O3)OC(=O)[C@@H]3C=C(C)/C(=N/O)[C@H]4OC/C(=C\C=C\[C@@H]2C)[C@]43O)O[C@@H](C)[C@@H]1O | Bile acid receptor (NR1H4, Homo sapiens, UniProt Q96RI1) | receptor activity, inhibitor | cells |  |  | IC50 | 3330 ± 730 nM |
